{"data": "Measured values gathered from unrelated publications", "note": "Compare with care: the assays were run in different laboratories. “And” joins repeats or separate records; there may be more than shown."}
{"Compound": "CCCCCCCCCCCCCCCC(=O)N[C@@H](CCC(=O)NCCOCCOCCC(=O)NCCOCCOCCC(=O)NCCCC[C@H](NC(=O)[C@H](CC(=O)O)NC(=O)[C@H](CC(C)C)NC(=O)[C@H](Cc1ccc(O)cc1)NC(=O)[C@H](CCCCN)NC(=O)[C@H](CO)NC(=O)[C@H](Cc1ccc(O)cc1)NC(=O)[C@H](CC(=O)O)NC(=O)[C@H](CO)NC(=O)[C@@H](NC(=O)[C@H](Cc1ccccc1)NC(=O)[C@@H](NC(=O)CNC(=O)[C@H](CCC(N)=O)NC(=O)[C@@H](CO)NC(=O)[C@@H](N)Cc1c[nH]cn1)[C@@H](C)O)[C@@H](C)O)C(=O)N[C@@H](CCCNC(=N)N)C(=O)N[C@@H](CCCNC(=N)N)C(=O)N[C@@H](C)C(=O)N[C@@H](CCC(N)=O)C(=O)N[C@@H](CC(=O)O)C(=O)N[C@@H](Cc1ccccc1)C(=O)N[C@H](C(=O)N[C@@H](CCC(N)=O)C(=O)N[C@@H](Cc1c[nH]c2ccccc12)C(=O)N[C@@H](CC(C)C)C(=O)N[C@@H](CC(C)C)C(=O)N[C@@H](CC(N)=O)C(=O)N[C@H](C(=O)NCC(=O)NCC(=O)N1CCC[C@H]1C(=O)N[C@@H](CO)C(=O)N[C@@H](CO)C(=O)NCC(=O)N[C@@H](C)C(=O)N1CCC[C@H]1C(=O)N1CCC[C@H]1C(=O)N1CCC[C@H]1C(=O)N[C@@H](CO)C(N)=O)[C@@H](C)O)C(C)C)C(=O)O", "system": "rhesus monkey, male, plasma", "conditions": "subcutaneous, 300 µg/kg, day 28, toxicokinetics, mean", "endpoint": "Cmax", "result": "590 ng/mL"}
{"Compound": "Cc1cc(C(NC(=O)C2CC2c2ccc(C)c(C)c2)C(N)=O)cc(C(F)(F)F)c1 (mixture of isomers)", "target or system": "Chikungunya virus", "assay": "viral replication", "system": "BHK-21", "conditions": "16 h", "endpoint": "EC50", "result": "95.9 µM"}
{"Compound": "CCCCCCCCCCCCCCCC(=O)N[C@@H](CSCC(COC(=O)CCCCCCCCCCCCCCC)OC(=O)CCCCCCCCCCCCCCC)C(=O)N[C@@H](CO)C(=O)N[C@@H](CCCCN)C(=O)N[C@@H](CCCCN)C(=O)N[C@@H](CCCCN)C(=O)N[C@@H](CCCCN)C(=O)O (stereo partly shown)", "target or system": "Chikungunya virus", "assay": "viral infection", "conditions": "concentration not given", "endpoint": "infectivity", "result": "172% and 170% and 165% and 173%"}
{"Compound": "Nc1nc(Nc2ccc(Cl)cc2)nn1S(=O)(=O)c1ccc2ccccc2c1", "target or system": "Chikungunya virus", "assay": "viral replication", "system": "Vero 76, S27", "endpoint": "EC50", "result": "> 7.3 µM"}
{"Compound": "O=c1cc(-c2ccccc2)oc2c(Br)c(O)c(O)c(O)c12", "target or system": "Chikungunya virus", "assay": "viral replication", "system": "Vero", "conditions": "10 µM, time after infection", "endpoint": "latest time of addition retaining inhibition", "result": "< 12 h"}
{"Compound": "CN1CCN(C(=O)N[C@@H](Cc2ccccc2)C(=O)N[C@H](/C=C/S(=O)(=O)c2ccccc2)CCc2ccccc2)CC1", "target or system": "Chikungunya virus", "assay": "pseudovirus entry", "system": "HEK-293T", "endpoint": "IC50", "result": "> 0.1 µM"}
{"Compound": "CCc1cc(=O)n2c(=O)/c(=C/c3ccc(OC)cc3)sc2n1", "target or system": "Chikungunya virus", "assay": "virus-induced cell death, MTS/PMS", "system": "BGM, Indian Ocean 899", "conditions": "20 µg/mL", "endpoint": "inhibition", "result": "4.3%"}
{"Compound": "COc1ccc(CNC(=O)C(NC(=O)C2CC2c2cc(C)cc(C)c2)c2ccc(C)c(C)c2)c(OC)c1 (mixture of isomers)", "target or system": "Chikungunya virus", "assay": "viral replication", "system": "BHK-21", "conditions": "16 h", "endpoint": "EC50", "result": "> 100 µM"}
{"Compound": "CCc1cc(=O)n2c(=O)/c(=C/c3ccc(OC(C)=O)c(OC)c3)sc2n1", "target or system": "Chikungunya virus", "assay": "virus-induced cell death, MTS/PMS", "system": "BGM, Indian Ocean 899", "conditions": "20 µg/mL", "endpoint": "inhibition", "result": "5.5%"}
{"Compound": "O=C(N1CCC2(CC1)CC(CN1CCCCS1(=O)=O)CCO2)C1(c2ccccc2)CCCC1 (racemic)", "target or system": "Chikungunya virus", "assay": "viral replication", "endpoint": "EC50", "result": "0.13 µM"}
{"note": "A few entries again:"}
{"Compound": "COc1ccc(CNC(=O)C(NC(=O)C2CC2c2cc(C)cc(C)c2)c2ccc(C)c(C)c2)c(OC)c1 (mixture of isomers)", "target or system": "Chikungunya virus", "assay": "viral replication", "system": "BHK-21", "conditions": "16 h", "endpoint": "EC50", "result": "> 100 µM"}
